{"data": "Results of several laboratories", "note": "Each numbered part is a random draw from the data of one study; scales do not carry over between parts.", "chain of UniProt P15056 (whole entry, unmodified, looked up)": "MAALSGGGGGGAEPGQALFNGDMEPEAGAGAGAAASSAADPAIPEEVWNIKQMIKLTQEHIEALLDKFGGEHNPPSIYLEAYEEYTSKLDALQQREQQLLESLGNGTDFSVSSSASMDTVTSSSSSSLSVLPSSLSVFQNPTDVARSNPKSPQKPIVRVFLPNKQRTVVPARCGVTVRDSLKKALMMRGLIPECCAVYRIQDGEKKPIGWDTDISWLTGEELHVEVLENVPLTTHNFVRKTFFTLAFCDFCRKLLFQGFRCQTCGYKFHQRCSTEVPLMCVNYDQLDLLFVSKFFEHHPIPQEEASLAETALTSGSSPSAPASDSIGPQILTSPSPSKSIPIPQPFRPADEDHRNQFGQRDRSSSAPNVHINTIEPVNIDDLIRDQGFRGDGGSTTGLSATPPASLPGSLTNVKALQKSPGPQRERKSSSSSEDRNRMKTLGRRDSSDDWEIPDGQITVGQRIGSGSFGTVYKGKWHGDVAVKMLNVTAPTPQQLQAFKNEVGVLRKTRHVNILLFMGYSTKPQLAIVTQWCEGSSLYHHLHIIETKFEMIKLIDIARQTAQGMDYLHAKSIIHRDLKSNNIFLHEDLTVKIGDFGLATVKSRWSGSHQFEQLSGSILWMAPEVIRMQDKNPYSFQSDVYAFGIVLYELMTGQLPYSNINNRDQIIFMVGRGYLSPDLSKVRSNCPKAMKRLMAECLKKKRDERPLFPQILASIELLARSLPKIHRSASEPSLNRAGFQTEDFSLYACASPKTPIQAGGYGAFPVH", "chain of UniProt P18089 (whole entry, looked up)": "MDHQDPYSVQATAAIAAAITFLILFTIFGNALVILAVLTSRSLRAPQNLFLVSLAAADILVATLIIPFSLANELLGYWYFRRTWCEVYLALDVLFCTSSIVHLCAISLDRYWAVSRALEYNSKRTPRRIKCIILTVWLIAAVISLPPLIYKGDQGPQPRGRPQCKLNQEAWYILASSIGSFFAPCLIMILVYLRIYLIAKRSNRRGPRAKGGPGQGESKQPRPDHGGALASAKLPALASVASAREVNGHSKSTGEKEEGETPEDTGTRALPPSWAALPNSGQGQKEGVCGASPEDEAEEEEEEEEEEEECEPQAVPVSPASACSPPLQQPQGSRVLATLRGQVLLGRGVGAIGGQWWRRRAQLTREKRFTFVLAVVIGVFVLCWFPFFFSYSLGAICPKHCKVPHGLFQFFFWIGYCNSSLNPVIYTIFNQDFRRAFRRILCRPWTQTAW", "chain of UniProt Q9Y2H1 (whole entry, looked up)": "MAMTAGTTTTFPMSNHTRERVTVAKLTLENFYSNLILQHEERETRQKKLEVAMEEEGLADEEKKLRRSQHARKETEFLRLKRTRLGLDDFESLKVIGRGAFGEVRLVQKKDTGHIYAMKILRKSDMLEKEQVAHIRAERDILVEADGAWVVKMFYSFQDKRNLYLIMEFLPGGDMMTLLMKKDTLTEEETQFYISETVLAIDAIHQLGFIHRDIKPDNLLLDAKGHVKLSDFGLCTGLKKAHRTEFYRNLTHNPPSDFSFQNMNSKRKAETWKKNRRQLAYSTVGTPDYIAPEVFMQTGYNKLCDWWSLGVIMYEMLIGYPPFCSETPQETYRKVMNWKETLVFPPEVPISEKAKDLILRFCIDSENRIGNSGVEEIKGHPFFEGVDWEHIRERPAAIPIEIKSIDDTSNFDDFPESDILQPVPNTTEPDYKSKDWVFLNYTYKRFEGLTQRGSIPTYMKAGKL", "chain of UniProt Q15303 (whole entry, unmodified, looked up)": "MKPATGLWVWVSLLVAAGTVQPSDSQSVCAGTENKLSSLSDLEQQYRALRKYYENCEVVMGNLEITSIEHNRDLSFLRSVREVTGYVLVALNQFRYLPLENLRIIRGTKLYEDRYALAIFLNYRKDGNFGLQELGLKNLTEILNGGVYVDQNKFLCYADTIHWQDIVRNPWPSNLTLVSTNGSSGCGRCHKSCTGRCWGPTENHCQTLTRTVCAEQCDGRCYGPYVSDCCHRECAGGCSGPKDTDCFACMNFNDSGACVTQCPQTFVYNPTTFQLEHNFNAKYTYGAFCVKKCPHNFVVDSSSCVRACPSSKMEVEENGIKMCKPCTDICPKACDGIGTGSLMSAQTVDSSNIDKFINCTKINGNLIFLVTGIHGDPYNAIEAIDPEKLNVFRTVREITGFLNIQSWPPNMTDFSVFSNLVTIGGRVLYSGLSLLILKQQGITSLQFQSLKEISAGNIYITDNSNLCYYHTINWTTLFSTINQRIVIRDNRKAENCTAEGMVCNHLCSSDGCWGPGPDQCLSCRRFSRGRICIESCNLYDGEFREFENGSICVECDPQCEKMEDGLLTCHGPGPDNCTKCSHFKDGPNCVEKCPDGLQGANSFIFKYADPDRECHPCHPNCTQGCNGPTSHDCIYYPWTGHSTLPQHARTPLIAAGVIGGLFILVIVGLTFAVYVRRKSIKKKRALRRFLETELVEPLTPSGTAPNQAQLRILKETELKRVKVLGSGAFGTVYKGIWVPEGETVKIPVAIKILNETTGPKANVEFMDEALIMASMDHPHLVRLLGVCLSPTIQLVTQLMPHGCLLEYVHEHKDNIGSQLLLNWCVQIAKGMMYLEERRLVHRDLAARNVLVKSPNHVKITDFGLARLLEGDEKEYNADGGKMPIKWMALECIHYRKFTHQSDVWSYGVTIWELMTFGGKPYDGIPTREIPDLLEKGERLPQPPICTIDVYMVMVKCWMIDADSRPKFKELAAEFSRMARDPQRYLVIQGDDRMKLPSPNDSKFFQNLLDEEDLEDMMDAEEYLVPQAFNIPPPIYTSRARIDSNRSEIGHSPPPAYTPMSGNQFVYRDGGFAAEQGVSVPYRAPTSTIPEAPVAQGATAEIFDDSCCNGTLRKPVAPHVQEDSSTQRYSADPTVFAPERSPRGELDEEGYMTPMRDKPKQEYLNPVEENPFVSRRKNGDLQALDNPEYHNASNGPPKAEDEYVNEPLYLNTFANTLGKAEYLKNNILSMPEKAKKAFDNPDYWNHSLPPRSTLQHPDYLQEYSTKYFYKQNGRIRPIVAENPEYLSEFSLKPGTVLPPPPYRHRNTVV", "chain of UniProt P28221 (whole entry, looked up)": "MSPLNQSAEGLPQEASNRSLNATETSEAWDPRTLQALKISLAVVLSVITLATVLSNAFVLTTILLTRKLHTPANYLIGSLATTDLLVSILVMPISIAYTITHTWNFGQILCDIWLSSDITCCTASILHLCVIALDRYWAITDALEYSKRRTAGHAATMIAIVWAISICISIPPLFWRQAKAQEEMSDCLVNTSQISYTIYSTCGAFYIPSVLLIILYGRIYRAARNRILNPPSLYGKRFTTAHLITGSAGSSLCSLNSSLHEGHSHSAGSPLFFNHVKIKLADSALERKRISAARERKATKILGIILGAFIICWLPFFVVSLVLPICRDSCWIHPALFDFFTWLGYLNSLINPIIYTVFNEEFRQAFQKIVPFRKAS", "chain of UniProt P13945 (whole entry, looked up)": "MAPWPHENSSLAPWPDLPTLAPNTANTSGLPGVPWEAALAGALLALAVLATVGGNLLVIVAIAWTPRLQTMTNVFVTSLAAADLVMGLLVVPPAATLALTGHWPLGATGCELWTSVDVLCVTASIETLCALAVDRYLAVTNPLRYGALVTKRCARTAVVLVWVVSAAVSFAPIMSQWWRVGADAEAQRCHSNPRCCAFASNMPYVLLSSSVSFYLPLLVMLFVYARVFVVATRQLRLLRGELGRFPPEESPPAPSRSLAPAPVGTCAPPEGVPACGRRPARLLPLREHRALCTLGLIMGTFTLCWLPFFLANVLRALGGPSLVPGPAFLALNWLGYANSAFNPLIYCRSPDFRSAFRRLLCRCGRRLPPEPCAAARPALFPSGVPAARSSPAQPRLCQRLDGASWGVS", "chain of UniProt P47898 (whole entry, looked up)": "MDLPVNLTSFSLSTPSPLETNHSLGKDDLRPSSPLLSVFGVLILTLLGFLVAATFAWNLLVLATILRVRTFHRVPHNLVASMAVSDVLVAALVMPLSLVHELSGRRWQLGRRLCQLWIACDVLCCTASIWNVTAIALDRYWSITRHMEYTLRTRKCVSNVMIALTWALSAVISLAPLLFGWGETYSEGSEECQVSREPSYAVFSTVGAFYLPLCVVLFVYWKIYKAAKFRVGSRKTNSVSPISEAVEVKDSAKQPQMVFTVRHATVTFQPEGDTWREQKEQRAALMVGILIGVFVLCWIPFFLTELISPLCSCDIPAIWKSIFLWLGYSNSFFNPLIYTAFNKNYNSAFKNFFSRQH"}
{"data": "Set 1", "SMILES": "N#CN1CC[C@H](C(=O)Nc2nc3c(s2)CN(C(=O)CN=[N+]=[N-])CC3)C1", "concentration": "10 µM"}
{"target": "HTR5A (Homo sapiens, UniProt P47898)", "assay": "cell-free assay", "inhibition": "11.8%"}
{"target": "HTR1D (Homo sapiens, UniProt P28221)", "assay": "cell-free assay", "inhibition": "-0.37%"}
{"target": "ADRB1 (Homo sapiens, UniProt P08588)", "assay": "ligand displacement", "inhibition": "-7.19%"}
{"target": "HRH3 (Homo sapiens, UniProt Q9Y5N1)", "assay": "ligand displacement", "inhibition": "-5.98%"}
{"target": "HRH2 (Homo sapiens, UniProt P25021)", "assay": "ligand displacement", "inhibition": "0.58%"}
{"target": "ADRA2B (Homo sapiens, UniProt P18089)", "assay": "ligand displacement", "inhibition": "-1.02%"}
{"target": "ADRB3 (Homo sapiens, UniProt P13945)", "assay": "ligand displacement", "inhibition": "-3.31%"}
{"data": "Set 2", "SMILES": "COc1cc(/C=C(\\C#N)C(=O)c2ccc(O)c(O)c2)cc(I)c1O", "action": "inhibitor", "concentration": "5 µM"}
{"target": "ERBB4 (Homo sapiens, UniProt Q15303, E872K)", "assay": "kinase–CDC37 interaction", "setting": "ERBB4 E872K oncogenic mutant", "scale": "reference: vehicle control", "log2 fold change": -0.127}
{"target": "kinase–CDC37 interaction", "assay": "kinase–CDC37 binding", "test system": "human cells", "setting": "oncogenic ETV6-NTRK3 fusion", "scale": "reference: vehicle", "log2 fold change": 0.137}
{"target": "BRAF (Homo sapiens, UniProt P15056)", "assay": "kinase-CDC37 interaction", "test system": "human cells", "scale": "reference: vehicle", "log2 fold change": -0.27}
{"target": "Cyclin-dependent kinase 14, with CDC37 (CDK14, Homo sapiens, UniProt O94921)", "test system": "human cells", "scale": "reference: vehicle", "log2 fold change": 0.145}
{"target": "MAPK4 (Homo sapiens, UniProt P31152)", "assay": "cell-based kinome screen", "test system": "human cells", "scale": "reference: untreated control", "log2 fold change": "-0.168 log2"}
{"target": "BRAF (Homo sapiens, UniProt P15056, G469E)", "assay": "cell-based kinome profiling", "test system": "human cells", "scale": "reference: vehicle control", "log2 fold change": 0.069}
{"target": "STK38L (Homo sapiens, UniProt Q9Y2H1)", "assay": "kinase-CDC37 interaction", "test system": "human cells", "scale": "reference: vehicle", "log2 fold change": 0.019}
{"target": "GRK2 (Homo sapiens, UniProt P25098)", "assay": "cell-based kinome screen", "test system": "human cells", "scale": "reference: vehicle", "log2 fold change": 0.049}
{"data": "Set 3", "Compound": "Cc1ncc(-c2cc3cc(-c4c(C)ccc(O)c4C)cnc3[nH]2)cn1", "target": "Membrane-associated tyrosine- and threonine-specific cdc2-inhibitory kinase (PKMYT1, Homo sapiens, UniProt Q99640)", "chain of UniProt Q99640 (whole entry, looked up)": "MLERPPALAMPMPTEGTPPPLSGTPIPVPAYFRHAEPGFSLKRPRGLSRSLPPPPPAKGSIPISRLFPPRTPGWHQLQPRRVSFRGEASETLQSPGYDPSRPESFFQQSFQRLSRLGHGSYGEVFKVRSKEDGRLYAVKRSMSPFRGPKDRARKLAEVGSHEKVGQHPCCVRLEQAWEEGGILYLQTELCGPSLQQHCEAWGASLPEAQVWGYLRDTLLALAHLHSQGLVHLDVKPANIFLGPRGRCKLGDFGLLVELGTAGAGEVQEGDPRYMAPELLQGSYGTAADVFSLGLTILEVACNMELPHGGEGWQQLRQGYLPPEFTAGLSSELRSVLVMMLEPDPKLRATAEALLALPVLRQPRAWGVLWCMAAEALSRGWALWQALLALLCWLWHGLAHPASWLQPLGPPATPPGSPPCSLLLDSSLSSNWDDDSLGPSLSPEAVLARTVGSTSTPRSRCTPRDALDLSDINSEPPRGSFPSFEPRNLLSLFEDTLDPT"}
{"assay": "cell-free assay, TR-FRET", "setting": "0.3704 µM", "inhibition [%]": 95.8}
{"setting": "0.00457 µM", "inhibition [%]": 14.7}
{"setting": "3.333 µM", "inhibition [%]": 104}
{"setting": "10 µM", "inhibition [%]": 102}
{"setting": "0.01372 µM", "inhibition [%]": 40.4}
{"assay": "cell-free assay, TR-FRET", "setting": "1.111 µM", "inhibition [%]": 98.3}
{"assay": "cell-free assay, TR-FRET", "setting": "13.72 nM", "inhibition [%]": 39.4}
{"data": "Set 4", "target": "Cyclin-dependent kinase 6, with cyclin D3 (CDK6, Homo sapiens, UniProt Q00534)", "observed": "enzyme activity", "action": "inhibitor", "concentration": "0.5 µM", "reference": "control", "chain of UniProt Q00534 (whole entry, looked up)": "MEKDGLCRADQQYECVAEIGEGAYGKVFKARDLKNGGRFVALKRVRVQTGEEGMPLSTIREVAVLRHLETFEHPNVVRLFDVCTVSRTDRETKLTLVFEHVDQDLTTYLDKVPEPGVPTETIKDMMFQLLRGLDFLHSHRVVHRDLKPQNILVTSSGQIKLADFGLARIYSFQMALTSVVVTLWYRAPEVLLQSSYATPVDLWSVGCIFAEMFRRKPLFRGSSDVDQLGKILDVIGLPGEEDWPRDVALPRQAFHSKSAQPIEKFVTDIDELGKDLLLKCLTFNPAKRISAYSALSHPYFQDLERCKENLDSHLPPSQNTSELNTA"}
{"SMILES": "Cc1ccc(Nc2nccc(N(C)c3ccc4c(C)n(C)nc4c3)n2)cc1S(N)(=O)=O", "remaining activity": "96.1%"}
{"SMILES": "Cc1nc(-c2ccccc2)c(-c2ccncc2)o1", "remaining activity": "109%"}
{"SMILES": "COc1cc2ncnc(Nc3ccc(Oc4ccccc4)cc3)c2cc1OC", "remaining activity": "108%"}
{"SMILES": "OCC(O)CCON=C1C(c2c(O)[nH]c3ccccc23)=Nc2ccccc21 (stereo not drawn)", "remaining activity": "10.2%"}
{"SMILES": "Cc1ccc(NC(=O)c2ccc(CN3CCN(C)CC3)cc2)cc1Nc1nc(-c2cccnc2)cs1", "remaining activity": "90.5%"}
{"SMILES": "O=C(Nc1cccc(Nc2cc(Nc3cccc(C(F)(F)F)c3)ncn2)c1)C1CC1", "remaining activity": "102%"}
{"SMILES": "O=S(=O)(c1cccc2cnccc12)N1CCCNCC1", "remaining activity": "95.8%"}
{"SMILES": "COc1ccc(C(=O)Nc2sc3c(c2C(N)=O)CCCC3)cc1OC", "remaining activity": "94.9%"}
{"SMILES": "Cn1c2ccccc2c2c3c(c4c5ccccc5n(CCC#N)c4c21)CNC3=O", "remaining activity": "52.1%"}
{"SMILES": "O=C1NC(=O)C(c2cn(CCCO)c3ncccc23)=C1c1cnccn1", "remaining activity": "84.4%"}
{"SMILES": "O=C(CCCc1ccc(-c2ccccc2F)cc1)Nc1ccc(O)cc1", "remaining activity": "103%"}
{"SMILES": "Oc1ccc(-c2nc(-c3ccncc3)c(-c3ccc(F)cc3)[nH]2)cc1", "remaining activity": "104%"}
{"SMILES": "O=C(O)c1ccc2c3c1cccc3c(=O)n1c3ccccc3nc21", "remaining activity": "105%"}
{"SMILES": "Nc1ccc2ncnc(NCCc3ccc(Oc4ccccc4)cc3)c2c1", "remaining activity": "100%"}
{"note": "Excerpt of the above (set 1):"}
{"target": "HRH3 (Homo sapiens, UniProt Q9Y5N1)", "assay": "ligand displacement", "inhibition": "-5.98%"}
{"target": "ADRA2B (Homo sapiens, UniProt P18089)", "assay": "ligand displacement", "inhibition": "-1.02%"}
